Assay results gathered from unrelated publications.
Every numbered part comes from another study and shows a few of its results, in no order.

Set 1
Target: Histone acetyltransferase KAT6A, winged helix 1, GST fusion (KAT6A, Homo sapiens, UniProt Q92794, residues 1-85)
Method: protein binding microarray
Form: double-stranded DNA, one strand shown
Medium: in vitro
Tested at: not given
Notes: 8-mer, flanks averaged, mean of 2 arrays, mostly near background
Baseline: not given
Reading: higher = stronger binding
Endpoint: E-score
Residues (chain): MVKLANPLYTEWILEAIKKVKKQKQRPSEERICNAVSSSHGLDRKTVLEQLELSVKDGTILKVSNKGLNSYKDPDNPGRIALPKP
GAAGTTGC: -0.176
CAACTGCC: 0.106
ATTTTTAC: -0.104
GACTATTA: -0.084
CCTGTTGC: -0.16
CGGGGAGA: 0.108

Set 2
Target: Prothrombin, mature alpha-thrombin (F2, Homo sapiens, UniProt P00734)
Method: aptamer microarray, sandwich
Form: DNA with 2'F-ANA
Medium: in vitro
Tested at: 200 nM
Notes: whole 15-mer aptamer, many near background
Together with: Cy3 exosite-II aptamer, 400 nM
Reading: higher = stronger binding
Endpoint: mean fluorescence intensity
Sequence: GGTTGGTGTGGTTGG
2'F-ANA at 1 9 10: 56.9 a.u.
2'F-ANA at 2 4 6 9 11 13 14: 89.9 a.u.
2'F-ANA at 5 6 7 9 11 13 14 15: 48.9 a.u.
2'F-ANA at 4 5 7 12 13: 111 a.u.
2'F-ANA at 6 7 8 9 10 11 14 15: 97.3 a.u.
2'F-ANA at 2 3 7 11 13: 751 a.u.

Set 3
Target: RING finger protein unkempt homolog, zinc fingers 1-6, GST-SBP tag (UNK, Homo sapiens, UniProt Q9C0B0, residues 30-357)
UniProt Q9C0B0, sequence (30-357, looked up): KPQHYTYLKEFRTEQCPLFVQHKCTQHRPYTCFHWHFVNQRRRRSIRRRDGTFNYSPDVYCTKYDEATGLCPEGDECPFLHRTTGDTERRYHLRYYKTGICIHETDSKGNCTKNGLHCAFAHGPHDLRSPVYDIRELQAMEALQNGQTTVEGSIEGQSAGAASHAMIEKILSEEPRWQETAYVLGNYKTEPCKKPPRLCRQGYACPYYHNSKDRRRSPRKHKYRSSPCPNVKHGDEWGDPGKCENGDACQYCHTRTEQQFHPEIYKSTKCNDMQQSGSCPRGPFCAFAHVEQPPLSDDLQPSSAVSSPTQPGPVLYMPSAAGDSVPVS
Method: RNA Bind-n-Seq
Form: RNA
Medium: in vitro
Tested at: not given
Notes: RNA with constant flanks, human and mouse sites, ends assumed
Baseline: input RNA pool
Reading: higher = stronger binding
Endpoint: bound/input enrichment
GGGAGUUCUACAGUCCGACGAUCGAGCCACGAUGCUCCCCAUACCCCACCCAUUCCCGAUACACCUUACUUACUGUGUGUUGGCCCAGCCAGAGUGAGGAAGGAGUUUGGCCACAUUGGAGAUGGCGGUAGCUGAGCAGACAUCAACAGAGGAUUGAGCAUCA: 0.153 ratio
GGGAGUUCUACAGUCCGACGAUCUAAAGAACUCUUCAGAAUUCCUGGUGUUUCAUCAUAUAUACGACUAAGAUAUCAACUCUUCUAGCUUGCUGUUUCUGGACCAAAAAAAAUGACGUCUAUUAUCAAAUUAACUACCCUUUCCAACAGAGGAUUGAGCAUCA: 1.59 ratio
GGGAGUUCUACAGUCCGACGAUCAAAAGAAAUUUUUUAAAAAACCCCUCAGUUUAACAGAUUUUGCAAUCCAUCCAGCCUUGUGGUUUUAUGCCUGCUCUUAAGUGAACAUUGGCGUCGCUCAAAGAAGGCUCAAUGUUGAGCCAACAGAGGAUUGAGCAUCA: 0.448 ratio
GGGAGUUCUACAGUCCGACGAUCCCUCCAAGAAAAAAUCCAGUAACUUCAAGUACUUCAGUAUUGCAUUCUAGUCCUCUUAAUGUUUUUAUGGGAUCUCCAGGGAAAGAGGAAAAUGAAAACCGUGAUCUAACAGCUGAGUCUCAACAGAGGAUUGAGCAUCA: 0.29 ratio
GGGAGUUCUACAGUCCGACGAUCGCAGCUGGAGAUUCUAAGUCCAUCAUCACGUGUCGGGUGUCCCUUCUGGAUGGUACUGAUGUUAGUGUGGACUUGCCAAAAAAAGCCAAAGGACAAGAGUUGUUUGAUCAGAUUAUGUACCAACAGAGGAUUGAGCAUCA: 0.259 ratio
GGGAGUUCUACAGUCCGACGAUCGGAGACCCUCAGAGUCAUCCAGUGACCAUGACUUUCAGGAGUAAGCCAACCUGUCAAAUCCAUUCCGUAAAGGCCUCGAUAAAGCUCAUCUCUCUGAGCUCUUACUGUCAGAAAUGCCAACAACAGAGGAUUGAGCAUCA: 0.145 ratio

Other studies, line by line
PhoQ, residues 284 288 289 292 302 303 SACGEM — fold induction (PhoP, residues 12 14 15 18 19 MHTVL (Escherichia coli, UniProt P23836); Sort-seq, measured: YFP reporter; E. coli; PhoQ-PhoP variant library, together with: 10 µM Mg2+; baseline: high Mg2+ state, higher = stronger signaling): 18.5

A few entries again (set 3):
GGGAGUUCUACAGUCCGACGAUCCCUCCAAGAAAAAAUCCAGUAACUUCAAGUACUUCAGUAUUGCAUUCUAGUCCUCUUAAUGUUUUUAUGGGAUCUCCAGGGAAAGAGGAAAAUGAAAACCGUGAUCUAACAGCUGAGUCUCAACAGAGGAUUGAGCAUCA: 0.29 ratio
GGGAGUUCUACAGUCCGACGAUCGCAGCUGGAGAUUCUAAGUCCAUCAUCACGUGUCGGGUGUCCCUUCUGGAUGGUACUGAUGUUAGUGUGGACUUGCCAAAAAAAGCCAAAGGACAAGAGUUGUUUGAUCAGAUUAUGUACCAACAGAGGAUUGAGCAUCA: 0.259 ratio
